{"data": "Experimental data gathered from unrelated publications", "note": "Parts stem from different laboratories: compare values within a part only. Several values in a cell are separate wells, animals, samples, runs or records.", "chain of UniProt O43293 (whole entry, looked up)": "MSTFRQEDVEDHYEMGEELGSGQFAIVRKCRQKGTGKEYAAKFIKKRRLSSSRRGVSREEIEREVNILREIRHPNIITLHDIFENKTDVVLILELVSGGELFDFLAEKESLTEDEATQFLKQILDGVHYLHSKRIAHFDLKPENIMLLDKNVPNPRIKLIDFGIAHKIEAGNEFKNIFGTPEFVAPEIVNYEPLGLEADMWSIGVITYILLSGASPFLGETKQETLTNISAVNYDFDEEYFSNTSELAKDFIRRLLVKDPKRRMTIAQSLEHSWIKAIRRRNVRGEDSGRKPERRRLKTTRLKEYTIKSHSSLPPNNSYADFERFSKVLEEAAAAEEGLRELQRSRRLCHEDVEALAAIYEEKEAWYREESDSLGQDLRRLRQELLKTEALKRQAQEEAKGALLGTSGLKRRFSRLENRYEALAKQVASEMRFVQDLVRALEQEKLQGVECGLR", "chain of UniProt P49137 (whole entry, looked up)": "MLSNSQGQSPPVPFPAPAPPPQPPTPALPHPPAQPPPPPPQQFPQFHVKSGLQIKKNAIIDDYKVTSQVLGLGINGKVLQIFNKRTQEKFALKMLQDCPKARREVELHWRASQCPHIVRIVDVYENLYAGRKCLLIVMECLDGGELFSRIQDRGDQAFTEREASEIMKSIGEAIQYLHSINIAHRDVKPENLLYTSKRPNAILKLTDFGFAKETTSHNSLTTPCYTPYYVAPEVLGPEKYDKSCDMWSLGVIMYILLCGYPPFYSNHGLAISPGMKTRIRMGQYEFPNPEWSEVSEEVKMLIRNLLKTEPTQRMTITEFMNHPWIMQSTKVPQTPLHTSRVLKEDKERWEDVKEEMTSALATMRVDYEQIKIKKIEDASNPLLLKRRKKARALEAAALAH", "chain of UniProt Q9HC98 (whole entry, looked up)": "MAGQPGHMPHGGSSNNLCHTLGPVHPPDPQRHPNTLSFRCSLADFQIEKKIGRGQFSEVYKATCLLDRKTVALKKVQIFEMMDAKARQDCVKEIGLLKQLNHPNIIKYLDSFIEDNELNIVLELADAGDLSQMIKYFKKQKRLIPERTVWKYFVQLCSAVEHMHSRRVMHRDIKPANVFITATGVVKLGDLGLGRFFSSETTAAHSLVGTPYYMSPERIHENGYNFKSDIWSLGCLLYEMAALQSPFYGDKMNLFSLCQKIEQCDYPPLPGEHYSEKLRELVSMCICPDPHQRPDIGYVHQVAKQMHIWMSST", "chain of UniProt P51957 (whole entry, looked up)": "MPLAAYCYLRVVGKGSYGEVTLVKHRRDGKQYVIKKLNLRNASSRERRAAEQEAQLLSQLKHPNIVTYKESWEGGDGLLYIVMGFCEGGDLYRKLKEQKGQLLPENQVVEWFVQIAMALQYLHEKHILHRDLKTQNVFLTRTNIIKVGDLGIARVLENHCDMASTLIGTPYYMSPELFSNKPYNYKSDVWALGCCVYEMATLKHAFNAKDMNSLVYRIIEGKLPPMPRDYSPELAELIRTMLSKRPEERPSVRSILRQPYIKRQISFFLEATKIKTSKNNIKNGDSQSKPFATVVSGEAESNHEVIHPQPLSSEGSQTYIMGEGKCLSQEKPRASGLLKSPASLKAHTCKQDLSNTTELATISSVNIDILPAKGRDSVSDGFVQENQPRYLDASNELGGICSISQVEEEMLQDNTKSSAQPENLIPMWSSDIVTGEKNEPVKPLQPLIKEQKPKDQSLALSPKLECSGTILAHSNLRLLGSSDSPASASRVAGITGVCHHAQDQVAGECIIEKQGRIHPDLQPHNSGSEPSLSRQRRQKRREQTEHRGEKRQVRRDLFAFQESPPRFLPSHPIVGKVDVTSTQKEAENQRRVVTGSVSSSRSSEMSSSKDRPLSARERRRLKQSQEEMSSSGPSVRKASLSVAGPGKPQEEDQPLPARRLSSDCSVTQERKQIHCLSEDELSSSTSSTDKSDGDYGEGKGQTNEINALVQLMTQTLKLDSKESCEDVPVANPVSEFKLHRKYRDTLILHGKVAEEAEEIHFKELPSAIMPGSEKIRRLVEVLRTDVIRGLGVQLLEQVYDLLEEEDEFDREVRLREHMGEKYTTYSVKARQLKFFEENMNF"}
{"data": "Series 1", "host": "mouse", "matrix": "microsomes or S9", "tested at": "2 µM", "time": "0.5 h"}
{"Structure (SMILES)": "Cn1c(/C=C2\\SC(=O)NC2=O)cc2c1-c1ccccc1OC2", "remaining compound [%]": 5.78}
{"Structure (SMILES)": "O=C1Cc2cc(S(=O)(=O)N3CCN(C(c4ccccc4)c4ccccc4)CC3)cc3c2N1CCC3", "remaining compound [%]": 2.91}
{"Structure (SMILES)": "COCCOCC(OC(=O)c1ccc(NC(N)=O)cc1)C(C)(C)C (centres unmarked)", "remaining compound [%]": 11.4}
{"Structure (SMILES)": "COc1ccc(CCN(Cc2nc(-c3ccccc3)no2)Cc2nc(-c3ccccc3)no2)cc1OC", "remaining compound [%]": 1.16}
{"Structure (SMILES)": "CCCOc1ccc2c(c1)CNC(CCCCN)C(=O)N2CCc1ccc(OC)cc1 (centres unmarked)", "remaining compound [%]": 88.8}
{"data": "Series 2", "target": "Calcium/calmodulin-dependent protein kinase type II subunit alpha (CAMK2A, Homo sapiens, UniProt Q9UQM7)", "observed": "enzyme activity", "mode": "inhibitor", "tested at": "10 µM", "chain of UniProt Q9UQM7 (whole entry, looked up)": "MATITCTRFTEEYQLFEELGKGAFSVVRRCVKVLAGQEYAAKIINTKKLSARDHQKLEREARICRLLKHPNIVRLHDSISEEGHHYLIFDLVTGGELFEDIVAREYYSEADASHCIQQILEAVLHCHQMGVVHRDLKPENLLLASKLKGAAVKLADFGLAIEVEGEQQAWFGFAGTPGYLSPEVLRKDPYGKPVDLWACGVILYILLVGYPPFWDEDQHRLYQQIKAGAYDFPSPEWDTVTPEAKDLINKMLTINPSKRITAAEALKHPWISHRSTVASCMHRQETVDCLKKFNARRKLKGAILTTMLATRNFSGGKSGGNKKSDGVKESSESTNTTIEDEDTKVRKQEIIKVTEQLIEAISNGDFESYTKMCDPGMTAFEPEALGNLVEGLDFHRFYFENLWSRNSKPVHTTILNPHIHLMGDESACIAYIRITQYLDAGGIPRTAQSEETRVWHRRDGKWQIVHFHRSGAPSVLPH"}
{"Structure (SMILES)": "CCOCCn1c(C2CCN(CCc3ccc(C(C)(C)C(=O)O)cc3)CC2)nc2ccccc21", "inhibition [%]": -7}
{"Structure (SMILES)": "C/C=C1\\[C@H]2C=C(C)C[C@]1(N)c1ccc(=O)[nH]c1C2", "inhibition [%]": 11}
{"Structure (SMILES)": "O=C(Nc1c(Cl)cncc1Cl)c1ccc(OC(F)F)c(OCC2CC2)c1", "inhibition [%]": -15}
{"Structure (SMILES)": "O=c1cc(-c2ccc(O)cc2)oc2cc(O)c([C@@H]3O[C@H](CO)[C@@H](O)[C@H](O)[C@H]3O[C@@H]3OC[C@H](O)[C@H](O)[C@H]3O)c(O)c12", "inhibition [%]": -13}
{"Structure (SMILES)": "Nc1nc(N)c2nc(-c3ccccc3)c(N)nc2n1", "inhibition [%]": 2}
{"Structure (SMILES)": "O=C(CCc1ccccc1)C[C@@H](O)/C=C/c1ccccc1", "inhibition [%]": 12}
{"Structure (SMILES)": "OCCc1ccccc1", "inhibition [%]": 33}
{"Structure (SMILES)": "CC(=O)OC[C@H]1O[C@@H](n2ccc(=O)[nH]c2=O)[C@H](OC(C)=O)[C@@H]1OC(C)=O", "inhibition [%]": 1}
{"data": "Series 3", "target": "DNA polymerase theta, ATPase domain (POLQ, Homo sapiens, UniProt O75417)", "observed": "enzyme activity", "mode": "inhibitor", "tested at": "77 µM", "baseline": "untreated", "chain of UniProt O75417 (whole entry, unmodified, looked up)": "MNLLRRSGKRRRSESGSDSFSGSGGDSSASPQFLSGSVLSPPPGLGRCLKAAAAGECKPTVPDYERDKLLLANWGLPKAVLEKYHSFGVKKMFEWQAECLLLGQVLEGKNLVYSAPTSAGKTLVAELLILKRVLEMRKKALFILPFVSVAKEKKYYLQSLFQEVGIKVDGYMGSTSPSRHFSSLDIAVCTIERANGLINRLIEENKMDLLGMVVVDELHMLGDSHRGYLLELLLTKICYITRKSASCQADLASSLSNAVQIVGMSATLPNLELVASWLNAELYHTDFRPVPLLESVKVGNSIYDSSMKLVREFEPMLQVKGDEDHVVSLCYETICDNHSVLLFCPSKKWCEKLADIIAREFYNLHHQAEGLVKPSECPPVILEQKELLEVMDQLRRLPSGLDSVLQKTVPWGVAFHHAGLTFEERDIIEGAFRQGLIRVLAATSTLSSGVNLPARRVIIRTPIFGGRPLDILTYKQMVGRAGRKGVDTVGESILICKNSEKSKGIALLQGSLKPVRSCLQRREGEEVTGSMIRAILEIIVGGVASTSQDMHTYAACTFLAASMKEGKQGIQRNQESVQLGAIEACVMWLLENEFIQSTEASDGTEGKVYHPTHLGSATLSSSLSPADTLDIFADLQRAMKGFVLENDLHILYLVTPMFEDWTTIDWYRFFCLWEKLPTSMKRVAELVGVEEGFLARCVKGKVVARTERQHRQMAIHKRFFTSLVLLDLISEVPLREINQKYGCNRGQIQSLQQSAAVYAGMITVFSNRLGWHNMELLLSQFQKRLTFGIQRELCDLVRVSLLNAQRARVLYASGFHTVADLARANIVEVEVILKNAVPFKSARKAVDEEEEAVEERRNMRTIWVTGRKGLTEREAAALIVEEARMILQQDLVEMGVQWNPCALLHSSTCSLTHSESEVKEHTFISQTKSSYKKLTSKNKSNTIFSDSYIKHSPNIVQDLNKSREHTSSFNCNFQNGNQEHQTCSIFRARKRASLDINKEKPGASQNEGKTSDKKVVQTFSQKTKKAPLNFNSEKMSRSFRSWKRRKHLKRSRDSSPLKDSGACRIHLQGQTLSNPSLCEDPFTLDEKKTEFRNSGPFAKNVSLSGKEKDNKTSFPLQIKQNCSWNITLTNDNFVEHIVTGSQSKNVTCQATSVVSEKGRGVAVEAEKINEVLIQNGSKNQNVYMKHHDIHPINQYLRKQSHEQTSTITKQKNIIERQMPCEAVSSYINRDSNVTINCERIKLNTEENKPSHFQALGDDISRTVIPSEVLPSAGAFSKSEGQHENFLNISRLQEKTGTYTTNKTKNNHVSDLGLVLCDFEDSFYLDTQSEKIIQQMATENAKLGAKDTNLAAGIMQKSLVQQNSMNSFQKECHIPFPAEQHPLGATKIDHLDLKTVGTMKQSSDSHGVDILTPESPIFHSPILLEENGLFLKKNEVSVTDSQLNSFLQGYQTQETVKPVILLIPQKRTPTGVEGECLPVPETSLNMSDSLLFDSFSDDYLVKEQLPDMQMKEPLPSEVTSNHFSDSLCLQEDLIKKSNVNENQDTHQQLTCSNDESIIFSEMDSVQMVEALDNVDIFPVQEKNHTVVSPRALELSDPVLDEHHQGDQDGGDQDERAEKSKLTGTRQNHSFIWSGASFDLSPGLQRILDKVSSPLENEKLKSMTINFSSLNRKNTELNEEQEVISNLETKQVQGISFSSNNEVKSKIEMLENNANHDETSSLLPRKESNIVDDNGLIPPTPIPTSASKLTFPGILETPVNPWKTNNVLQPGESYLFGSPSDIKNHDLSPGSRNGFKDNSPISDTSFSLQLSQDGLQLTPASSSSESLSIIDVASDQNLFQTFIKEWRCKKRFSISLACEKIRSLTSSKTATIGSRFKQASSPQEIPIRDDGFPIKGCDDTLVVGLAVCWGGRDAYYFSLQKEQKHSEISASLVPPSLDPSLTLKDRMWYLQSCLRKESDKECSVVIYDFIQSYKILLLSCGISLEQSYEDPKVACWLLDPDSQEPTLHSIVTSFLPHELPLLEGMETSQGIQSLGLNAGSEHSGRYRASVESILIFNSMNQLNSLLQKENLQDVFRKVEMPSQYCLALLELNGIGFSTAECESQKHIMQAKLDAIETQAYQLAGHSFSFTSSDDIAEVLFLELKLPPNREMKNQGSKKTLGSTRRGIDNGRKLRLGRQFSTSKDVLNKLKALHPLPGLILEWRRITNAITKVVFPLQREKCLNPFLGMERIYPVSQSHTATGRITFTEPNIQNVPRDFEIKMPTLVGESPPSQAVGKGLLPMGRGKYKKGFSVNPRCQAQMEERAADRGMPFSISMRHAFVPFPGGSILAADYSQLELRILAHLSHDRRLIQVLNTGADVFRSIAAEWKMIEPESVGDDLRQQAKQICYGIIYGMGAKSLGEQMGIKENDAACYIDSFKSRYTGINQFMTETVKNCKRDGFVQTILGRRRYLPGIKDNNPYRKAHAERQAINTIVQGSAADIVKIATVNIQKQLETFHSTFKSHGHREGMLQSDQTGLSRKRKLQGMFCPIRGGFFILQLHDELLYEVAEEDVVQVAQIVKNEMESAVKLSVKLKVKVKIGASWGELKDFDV"}
{"Structure (SMILES)": "O=C(O)C(Cc1ccccc1[N+](=O)[O-])=NNc1nc(-c2ccc(Cl)c(Cl)c2)cs1 (mixture of isomers)", "remaining activity": "81.9%"}
{"Structure (SMILES)": "Cc1nc2c([nH]1)c(=O)n(C)c(=O)n2Cc1ccco1", "remaining activity": "106%"}
{"Structure (SMILES)": "Cc1ccc(Sc2ccccc2N2CCNCC2)c(C)c1", "remaining activity": "106%"}
{"Structure (SMILES)": "C[C@]12C[C@H](O)[C@H]3[C@@H](CCC4=CC(=O)CC[C@@]43C)[C@@H]1CC[C@@H]2C(=O)CO", "remaining activity": "99.3% and 103%"}
{"Structure (SMILES)": "CC1(C)OC(=O)NC1=O", "remaining activity": "98.1%"}
{"data": "Series 4", "SMILES": "CC(=O)N1CCC(c2ccc(C(=O)NC(=N)N)cc2C(F)(F)F)CC1", "technique": "competition with immobilised ligand", "tested at": "1 µM"}
{"target": "NEK7 (Homo sapiens, UniProt Q8TDX7)", "observed": "cell-free assay", "remaining binding [%]": 100}
{"target": "KIT (Homo sapiens, UniProt P10721, D816H)", "observed": "cell-free assay", "remaining binding [%]": 100}
{"target": "PKN2 (Homo sapiens, UniProt Q16513)", "observed": "cell-free assay", "remaining binding [%]": 100}
{"target": "EGFR (Homo sapiens, UniProt P00533, L858R/T790M)", "observed": "cell-free assay", "remaining binding [%]": 100}
{"target": "NEK6 (Homo sapiens, UniProt Q9HC98)", "observed": "cell-free assay", "remaining binding [%]": 100}
{"target": "LTK (Homo sapiens, UniProt P29376)", "observed": "cell-free assay", "remaining binding [%]": 100}
{"target": "Myosin-IIIa (MYO3A, Homo sapiens, UniProt Q8NEV4)", "observed": "binding", "remaining binding [%]": 100}
{"target": "Macrophage colony-stimulating factor 1 receptor, autoinhibited (CSF1R, Homo sapiens, UniProt P07333)", "observed": "cell-free assay", "remaining binding [%]": 85}
{"target": "TNNI3K (Homo sapiens, UniProt Q59H18)", "observed": "cell-free assay", "remaining binding [%]": 100}
{"target": "CAMK4 (Homo sapiens, UniProt Q16566)", "observed": "cell-free assay", "remaining binding [%]": 93}
{"target": "CAMKK2 (Homo sapiens, UniProt Q96RR4)", "observed": "cell-free assay", "remaining binding [%]": 100}
{"target": "EGFR (Homo sapiens, UniProt P00533, A750P/del747-749)", "observed": "cell-free assay", "remaining binding [%]": 100}
{"target": "MAPKAPK2 (Homo sapiens, UniProt P49137)", "observed": "cell-free assay", "remaining binding [%]": 100}
{"target": "Ribosomal protein S6 kinase alpha-3, C-terminal kinase domain (RPS6KA3, Homo sapiens, UniProt P51812)", "observed": "cell-free assay", "remaining binding [%]": 100}
{"target": "KDR (Homo sapiens, UniProt P35968)", "observed": "cell-free assay", "remaining binding [%]": 93}
{"target": "Aurora kinase A (AURKA, Homo sapiens, UniProt O14965)", "observed": "cell-free assay", "remaining binding [%]": 87}
{"target": "ALK (Homo sapiens, UniProt Q9UM73, C1156Y)", "observed": "cell-free assay", "remaining binding [%]": 100}
{"target": "Tyrosine-protein kinase ABL1, phosphorylated (ABL1, Homo sapiens, UniProt P00519, Y253F)", "observed": "cell-free assay", "remaining binding [%]": 92}
{"target": "LYN (Homo sapiens, UniProt P07948)", "observed": "cell-free assay", "remaining binding [%]": 100}
{"target": "PRKX (Homo sapiens, UniProt P51817)", "observed": "cell-free assay", "remaining binding [%]": 100}
{"target": "DAPK3 (Homo sapiens, UniProt O43293)", "observed": "cell-free assay", "remaining binding [%]": 100}
{"target": "NEK4 (Homo sapiens, UniProt P51957)", "observed": "cell-free assay", "remaining binding [%]": 100}
{"target": "HIPK3 (Homo sapiens, UniProt Q9H422)", "observed": "cell-free assay", "remaining binding [%]": 82}
{"target": "WEE2 (Homo sapiens, UniProt P0C1S8)", "observed": "cell-free assay", "remaining binding [%]": 100}
{"data": "Series 5", "SMILES": "O=C(Nc1cnn(-c2csc(C(=O)NC3COC3)c2)c1)Nc1c(F)cccc1Cl", "observed": "enzyme activity", "tested at": "5 µM", "baseline": "untreated control"}
{"target": "CDK14 (Homo sapiens, UniProt O94921)", "remaining activity [%]": 104}
{"target": "IKBKE (Homo sapiens, UniProt Q14164)", "remaining activity [%]": 95}
{"target": "Aurora kinase C (AURKC, Homo sapiens, UniProt Q9UQB9)", "remaining activity [%]": 58.1}
{"target": "PLK2 (Homo sapiens, UniProt Q9NYY3)", "remaining activity [%]": 99.5}
{"target": "MAP3K2 (Homo sapiens, UniProt Q9Y2U5)", "remaining activity [%]": 78.6}
{"target": "EGFR (Homo sapiens, UniProt P00533)", "remaining activity [%]": 85.6}
{"target": "RPS6KA1 (Homo sapiens, UniProt Q15418)", "remaining activity [%]": 96}
{"target": "BRSK1 (Homo sapiens, UniProt Q8TDC3)", "remaining activity [%]": 99.3}
{"note": "A few entries again (series 3):"}
{"Structure (SMILES)": "CC1(C)OC(=O)NC1=O", "remaining activity": "98.1%"}
{"Structure (SMILES)": "Cc1nc2c([nH]1)c(=O)n(C)c(=O)n2Cc1ccco1", "remaining activity": "106%"}
{"Structure (SMILES)": "O=C(O)C(Cc1ccccc1[N+](=O)[O-])=NNc1nc(-c2ccc(Cl)c(Cl)c2)cs1 (mixture of isomers)", "remaining activity": "81.9%"}
{"Structure (SMILES)": "C[C@]12C[C@H](O)[C@H]3[C@@H](CCC4=CC(=O)CC[C@@]43C)[C@@H]1CC[C@@H]2C(=O)CO", "remaining activity": "99.3% and 103%"}
{"Structure (SMILES)": "Cc1ccc(Sc2ccccc2N2CCNCC2)c(C)c1", "remaining activity": "106%"}
